Results from different studies.
Each line is one published result; not all experiments were run side by side. ± gives the spread as reported.
ADORA1: Adenosine receptor A1 (ADORA1, Homo sapiens, UniProt P30542)
APP: Amyloid-beta precursor protein (APP, Homo sapiens, UniProt P05067)
Chain of UniProt P05067 (whole entry, looked up): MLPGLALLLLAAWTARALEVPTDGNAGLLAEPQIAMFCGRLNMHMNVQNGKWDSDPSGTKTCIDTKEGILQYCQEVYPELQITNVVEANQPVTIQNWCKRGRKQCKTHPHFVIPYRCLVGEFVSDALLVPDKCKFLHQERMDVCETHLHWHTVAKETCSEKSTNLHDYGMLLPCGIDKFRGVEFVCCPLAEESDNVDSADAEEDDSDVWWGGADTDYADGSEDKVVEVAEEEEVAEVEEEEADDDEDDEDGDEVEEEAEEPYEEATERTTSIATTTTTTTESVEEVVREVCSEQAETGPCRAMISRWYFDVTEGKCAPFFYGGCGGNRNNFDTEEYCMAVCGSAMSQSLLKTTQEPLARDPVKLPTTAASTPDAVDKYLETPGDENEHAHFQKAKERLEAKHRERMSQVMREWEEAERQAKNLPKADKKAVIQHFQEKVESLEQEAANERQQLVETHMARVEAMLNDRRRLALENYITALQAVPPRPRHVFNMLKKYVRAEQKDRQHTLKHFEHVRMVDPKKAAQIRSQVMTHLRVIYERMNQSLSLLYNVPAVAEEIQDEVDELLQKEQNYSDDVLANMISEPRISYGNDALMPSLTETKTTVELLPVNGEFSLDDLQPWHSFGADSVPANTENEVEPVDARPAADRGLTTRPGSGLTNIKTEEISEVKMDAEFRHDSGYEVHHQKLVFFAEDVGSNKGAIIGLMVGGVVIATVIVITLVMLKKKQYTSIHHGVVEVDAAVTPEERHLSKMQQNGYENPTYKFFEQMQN
nanA: Sialidase A (nanA, Streptococcus pneumoniae, UniProt P62575)
Tripartite terminase subunit 3 C-terminal nuclease domain: Tripartite terminase subunit 3, C-terminal nuclease domain (Human betaherpesvirus 5, UniProt P16732)
Chain of UniProt P16732 (whole entry, looked up): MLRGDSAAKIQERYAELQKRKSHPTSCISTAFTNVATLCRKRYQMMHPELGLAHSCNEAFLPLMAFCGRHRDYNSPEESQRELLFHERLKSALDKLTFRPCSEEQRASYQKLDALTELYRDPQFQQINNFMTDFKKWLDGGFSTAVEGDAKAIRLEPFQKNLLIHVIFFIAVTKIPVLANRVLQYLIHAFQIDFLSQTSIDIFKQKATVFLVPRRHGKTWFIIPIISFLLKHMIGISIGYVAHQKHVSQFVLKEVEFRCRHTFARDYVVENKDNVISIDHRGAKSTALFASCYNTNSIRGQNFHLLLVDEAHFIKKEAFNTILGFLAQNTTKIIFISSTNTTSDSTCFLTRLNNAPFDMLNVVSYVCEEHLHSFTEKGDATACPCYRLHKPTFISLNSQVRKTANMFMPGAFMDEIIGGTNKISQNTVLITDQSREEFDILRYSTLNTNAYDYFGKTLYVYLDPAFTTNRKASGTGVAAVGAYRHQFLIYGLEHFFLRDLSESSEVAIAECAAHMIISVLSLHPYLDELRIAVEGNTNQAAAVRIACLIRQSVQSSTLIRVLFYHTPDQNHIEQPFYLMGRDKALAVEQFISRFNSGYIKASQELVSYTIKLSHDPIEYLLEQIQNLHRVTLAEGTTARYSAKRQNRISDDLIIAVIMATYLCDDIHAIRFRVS
Cacna1b: Voltage-dependent N-type calcium channel subunit alpha-1B (Cacna1b, Rattus norvegicus, UniProt Q02294)
Chain of UniProt P06935 (whole entry, looked up): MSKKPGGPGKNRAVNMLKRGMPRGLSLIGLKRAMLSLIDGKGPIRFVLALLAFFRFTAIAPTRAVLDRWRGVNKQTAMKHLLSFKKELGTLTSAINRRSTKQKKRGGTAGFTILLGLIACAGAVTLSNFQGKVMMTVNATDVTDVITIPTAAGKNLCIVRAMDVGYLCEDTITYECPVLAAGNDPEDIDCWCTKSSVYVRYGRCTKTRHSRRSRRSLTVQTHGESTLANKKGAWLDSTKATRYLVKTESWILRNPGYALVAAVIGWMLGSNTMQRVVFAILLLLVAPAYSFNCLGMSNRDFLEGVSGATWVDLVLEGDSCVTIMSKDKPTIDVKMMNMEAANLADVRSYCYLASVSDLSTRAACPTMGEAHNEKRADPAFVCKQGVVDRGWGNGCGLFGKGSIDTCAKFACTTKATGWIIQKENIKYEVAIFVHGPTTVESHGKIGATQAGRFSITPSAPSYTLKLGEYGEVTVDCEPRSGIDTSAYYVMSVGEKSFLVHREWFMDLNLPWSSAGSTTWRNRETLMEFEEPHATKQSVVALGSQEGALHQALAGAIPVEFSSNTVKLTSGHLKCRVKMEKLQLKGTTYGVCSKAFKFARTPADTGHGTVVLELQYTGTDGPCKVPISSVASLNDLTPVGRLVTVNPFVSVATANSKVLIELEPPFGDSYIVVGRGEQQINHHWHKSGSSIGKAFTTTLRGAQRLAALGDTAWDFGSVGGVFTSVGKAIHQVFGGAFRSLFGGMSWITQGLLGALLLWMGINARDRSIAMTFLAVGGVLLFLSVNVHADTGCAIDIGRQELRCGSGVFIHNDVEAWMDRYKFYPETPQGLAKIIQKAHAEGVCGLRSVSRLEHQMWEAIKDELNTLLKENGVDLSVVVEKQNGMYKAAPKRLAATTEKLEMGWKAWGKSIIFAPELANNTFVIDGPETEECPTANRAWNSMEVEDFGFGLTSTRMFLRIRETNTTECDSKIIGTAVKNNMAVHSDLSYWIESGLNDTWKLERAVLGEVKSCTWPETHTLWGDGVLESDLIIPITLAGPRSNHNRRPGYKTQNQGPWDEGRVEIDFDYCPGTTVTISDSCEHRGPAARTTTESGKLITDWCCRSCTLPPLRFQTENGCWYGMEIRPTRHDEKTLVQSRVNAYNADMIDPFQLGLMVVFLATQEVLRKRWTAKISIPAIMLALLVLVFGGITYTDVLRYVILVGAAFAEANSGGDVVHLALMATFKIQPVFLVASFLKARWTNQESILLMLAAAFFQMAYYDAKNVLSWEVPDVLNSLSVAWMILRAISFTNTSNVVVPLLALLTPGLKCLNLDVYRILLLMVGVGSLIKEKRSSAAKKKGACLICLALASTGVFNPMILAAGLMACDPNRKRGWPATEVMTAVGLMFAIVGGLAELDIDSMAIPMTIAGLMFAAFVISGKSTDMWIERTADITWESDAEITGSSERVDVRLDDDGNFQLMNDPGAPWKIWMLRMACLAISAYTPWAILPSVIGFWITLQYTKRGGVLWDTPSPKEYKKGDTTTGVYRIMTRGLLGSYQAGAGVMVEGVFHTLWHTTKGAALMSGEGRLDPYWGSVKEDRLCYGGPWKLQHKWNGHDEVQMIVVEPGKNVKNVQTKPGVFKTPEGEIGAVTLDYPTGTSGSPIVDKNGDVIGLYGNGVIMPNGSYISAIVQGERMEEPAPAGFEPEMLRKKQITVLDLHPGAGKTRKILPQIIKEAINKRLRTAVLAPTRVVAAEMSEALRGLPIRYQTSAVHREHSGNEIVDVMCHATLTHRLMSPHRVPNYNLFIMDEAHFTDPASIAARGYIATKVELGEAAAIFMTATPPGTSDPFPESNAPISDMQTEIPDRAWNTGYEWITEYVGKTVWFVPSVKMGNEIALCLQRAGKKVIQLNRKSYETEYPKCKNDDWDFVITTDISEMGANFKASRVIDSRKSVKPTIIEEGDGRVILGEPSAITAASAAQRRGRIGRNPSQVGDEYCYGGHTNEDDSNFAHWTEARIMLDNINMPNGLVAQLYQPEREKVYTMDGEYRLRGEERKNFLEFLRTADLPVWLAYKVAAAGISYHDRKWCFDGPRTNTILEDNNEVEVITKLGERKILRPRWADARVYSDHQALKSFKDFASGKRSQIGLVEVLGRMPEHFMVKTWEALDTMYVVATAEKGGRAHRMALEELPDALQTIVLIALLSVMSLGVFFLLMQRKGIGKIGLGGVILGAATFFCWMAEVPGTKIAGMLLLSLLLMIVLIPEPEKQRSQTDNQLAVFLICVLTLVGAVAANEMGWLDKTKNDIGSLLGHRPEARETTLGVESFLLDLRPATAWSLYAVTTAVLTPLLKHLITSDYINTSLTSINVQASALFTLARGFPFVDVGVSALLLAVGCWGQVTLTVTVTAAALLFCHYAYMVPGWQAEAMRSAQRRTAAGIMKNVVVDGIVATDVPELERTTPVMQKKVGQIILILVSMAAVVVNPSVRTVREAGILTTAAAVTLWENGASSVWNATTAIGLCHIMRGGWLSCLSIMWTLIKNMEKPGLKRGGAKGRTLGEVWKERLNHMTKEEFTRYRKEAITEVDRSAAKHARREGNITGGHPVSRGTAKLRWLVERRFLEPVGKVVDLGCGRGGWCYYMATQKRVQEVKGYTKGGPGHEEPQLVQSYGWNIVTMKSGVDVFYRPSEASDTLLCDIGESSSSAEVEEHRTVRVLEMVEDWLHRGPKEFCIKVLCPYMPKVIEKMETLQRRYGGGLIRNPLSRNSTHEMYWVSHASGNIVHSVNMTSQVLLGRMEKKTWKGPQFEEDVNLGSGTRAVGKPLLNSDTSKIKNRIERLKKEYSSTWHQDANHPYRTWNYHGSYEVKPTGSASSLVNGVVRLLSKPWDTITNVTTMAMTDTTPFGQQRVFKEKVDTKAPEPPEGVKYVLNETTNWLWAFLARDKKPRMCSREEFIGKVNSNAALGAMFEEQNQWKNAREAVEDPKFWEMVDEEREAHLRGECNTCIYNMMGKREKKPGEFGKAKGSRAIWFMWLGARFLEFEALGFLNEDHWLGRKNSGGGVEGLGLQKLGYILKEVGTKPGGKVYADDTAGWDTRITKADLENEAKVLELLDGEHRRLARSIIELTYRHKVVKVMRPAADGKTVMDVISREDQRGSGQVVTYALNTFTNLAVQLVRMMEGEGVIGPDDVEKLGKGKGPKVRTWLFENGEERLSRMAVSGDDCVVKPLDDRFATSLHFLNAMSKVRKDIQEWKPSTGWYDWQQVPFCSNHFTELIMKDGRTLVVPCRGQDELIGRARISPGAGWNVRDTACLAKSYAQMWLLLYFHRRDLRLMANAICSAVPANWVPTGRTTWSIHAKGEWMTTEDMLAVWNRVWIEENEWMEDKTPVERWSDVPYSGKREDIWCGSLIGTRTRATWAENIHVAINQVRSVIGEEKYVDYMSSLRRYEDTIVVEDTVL
Chain of UniProt P78417 (whole entry, looked up): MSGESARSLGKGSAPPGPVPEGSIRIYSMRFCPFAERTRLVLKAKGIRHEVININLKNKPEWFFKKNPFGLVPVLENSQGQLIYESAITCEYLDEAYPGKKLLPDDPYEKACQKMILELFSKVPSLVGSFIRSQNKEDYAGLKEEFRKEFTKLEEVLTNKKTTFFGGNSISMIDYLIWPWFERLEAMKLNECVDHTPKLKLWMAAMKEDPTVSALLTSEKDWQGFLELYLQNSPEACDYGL

SMILES = O=C(Nc1cnccc1Cl)N1CCN(Cc2ccc3c(c2)OC(F)(F)O3)CC1; target or system = ADORA1; test = binding; conditions = 10 µM, together with: [3H]DPCPX; quantity = inhibition; result = 10%
SMILES = FC(F)(F)c1cccc(Nc2nc(NCCOc3ccccc3)nc3[nH]cnc23)c1; target or system = Cyclin-dependent kinase 9, with cyclin T1 (CDK9, Homo sapiens, UniProt P50750); test = Z'-LYTE or Adapta; conditions = 5 µM; quantity = inhibition; result = 6%
SMILES = CO[C@H]1/C=C/O[C@@]2(C)Oc3c(C)c(O)c4c(O)c(c(/C=N/N5CCN(C)CC5)c(O)c4c3C2=O)NC(=O)/C(C)=C\C=C\[C@H](C)[C@H](O)[C@@H](C)[C@@H](O)[C@@H](C)[C@H](OC(C)=O)[C@@H]1C; target or system = Glutathione S-transferase omega-1 (GSTO1, Homo sapiens, UniProt P78417); conditions = 5 µM; quantity = inhibition; result = 61%
SMILES = Cc1ccc(S(=O)(=O)Oc2ccc3c(c2)Oc2nc4c(c(N)c2C3c2ccc(Cl)c(Cl)c2)CCCC4)cc1 (stereo not drawn); target or system = APP; test = Aβ42 self-aggregation, inhibitor, thioflavin T fluorescence; conditions = 0.1 µM; quantity = inhibition; result = 7.5%
SMILES = CC(=O)N[C@@H]1C(N)C[C@](OCC2O[C@@H](Oc3ccc([N+](=O)[O-])cc3)C(O)C(O)[C@H]2O)(C(=O)O)OC1[C@H](O)[C@H](O)CO (stereo partly drawn); target or system = nanA; conditions = 8 µM, pH 6; quantity = inhibition; result = 4.4 ± 9.6%
SMILES = COC(=O)C1=CCCN(C)C1; target or system = Acetyl-CoA acetyltransferase, mitochondrial (Homo sapiens, UniProt P24752); test = enzyme activity; system = human primary leukaemia cells; conditions = concentration not given, 72 h; quantity = inhibition; result = inhibited
SMILES = CN1CCN(c2cc(-c3ccncc3)c(-c3ccc4ccccc4c3)nn2)CC1; target or system = D(1B) dopamine receptor (DRD5, Homo sapiens, UniProt P21918); test = antagonist, FLIPR; conditions = 10 µM; quantity = inhibition; result = 25.3%
SMILES = O=C(Nc1cccc(OS(=O)(=O)c2ccc(Cl)cc2)c1)c1ccc2ncccc2c1; target or system = P2Y purinoceptor 1 (Meleagris gallopavo, UniProt P49652); test = receptor activation, antagonist, calcium mobilization; system = 1321N1 cells expressing P2Y1 receptor; conditions = 100 µM, together with: ADP 500 nM; quantity = inhibition; result = 35%
SMILES = Cc1ccc(S(=O)(=O)n2c(N)nc3ccccc32)cc1; target or system = Muscarinic acetylcholine receptor M5 (CHRM5, Homo sapiens, UniProt P08912); conditions = 10 µM; quantity = inhibition; result = 54.6%
SMILES = O=C(Nc1ccc2c(c1)B(O)OC2)c1ccc(OCc2ccccc2)cc1; target or system = Genome polyprotein, NS2B-NS3 protease (West Nile virus, UniProt P06935); test = enzyme activity, FRET; conditions = 50 µM, together with: substrate 50 µM; quantity = inhibition; result = 12 ± 5%
SMILES = O=c1[nH]c2sc(-c3ccc(Cl)cc3)cc2c(=O)n1O; target or system = Tripartite terminase subunit 3 C-terminal nuclease domain; test = endonuclease activity, ELISA; conditions = 20 µM, together with: dsDNA; quantity = inhibition; result = 97%
SMILES = COCc1c(-c2cc3cc(C)cc(OC)c3s2)c2c(N)ncnn2c1CN1CCNC(=O)C1; target or system = GABAA chloride channel (TBOB site); test = radioligand binding; conditions = 10 µM; quantity = inhibition; result = 49%
SMILES = COc1ccc(S(=O)(=O)Oc2ccc3c(c2)Oc2nc4c(c(N)c2C3c2cccc(OC)c2)CCCC4)cc1 (stereo not drawn); target or system = APP; test = Aβ42 self-aggregation, inhibitor, thioflavin T fluorescence; conditions = 0.01 µM; quantity = inhibition; result = 2.6%
SMILES = O=C(O[C@@H]1Cc2c(O)cc(O)cc2O[C@@H]1c1cc(O)c(=O)c2c(O)c(O)cc([C@H]3Oc4cc(O)cc(O)c4C[C@H]3OC(=O)c3cc(O)c(O)c(O)c3)c2c1)c1cc(O)c(O)c(O)c1; target or system = Protein disulfide-isomerase A6 (PDIA6, Homo sapiens, UniProt Q15084); test = di-eosin-GSSG reductase activity; conditions = 20 µM, 15 min; quantity = inhibition; result = inhibited
SMILES = Cn1cc(-c2cc(F)cc(N3CCn4c(cc5c4CCCC5)C3=O)c2CO)cc(Nc2ccc(N3CCN(C4COC4)CC3)cn2)c1=O; target or system = Mitogen-activated protein kinase 14 (MAPK14, Homo sapiens, UniProt Q16539); test = kinase activity, inhibitor, SelectScreen; conditions = 0.1 µM, together with: ATP at apparent Km; quantity = inhibition; result = 14%
SMILES = CN(C(=O)n1cnc(-c2ccc[n+]([O-])c2)c1)C1CCCCC1; target or system = Histamine H4 receptor (HRH4, Homo sapiens, UniProt Q9H3N8); test = radioligand binding; conditions = 10 µM, together with: [3H]histamine; quantity = inhibition; result = 5%
SMILES = Nc1ccncc1; target or system = Glutamate receptor 2 (Homo sapiens, UniProt P42262); test = ion current, negative allosteric modulator, automated patch clamp; system = HEK293; conditions = 30 µM; quantity = inhibition; result = 16%
SMILES = O=c1[nH]c2sccc2c(=O)n1O; target or system = Tripartite terminase subunit 3 C-terminal nuclease domain; test = endonuclease activity, ELISA; conditions = 20 µM, together with: dsDNA; quantity = inhibition; result = 94%
SMILES = N#Cc1ccc(CNc2ccc3c(c2)B(O)OC3)cc1; target or system = Genome polyprotein, NS2B-NS3 protease (West Nile virus, UniProt P06935); test = enzyme activity, FRET; conditions = 50 µM, together with: substrate 50 µM; quantity = inhibition; result = 19 ± 4%
SMILES = O=C(Nc1cccnn1)N1CCN([C@@H]2CCOc3cc(C(F)(F)F)ccc32)CC1; target or system = Cacna1b; test = binding; conditions = 20 µM; quantity = inhibition; result = -7%
SMILES = Cc1onc(-c2ccc(F)cc2)c1C(=O)Nc1ccc2c(c1)B(O)OC2; target or system = Genome polyprotein, NS2B-NS3 protease (West Nile virus, UniProt P06935); test = enzyme activity, FRET; conditions = 50 µM, together with: substrate 50 µM; quantity = inhibition; result = ≤ 10%
SMILES = Nc1ncnc2c1ncn2[C@@H]1O[C@H](C[C@@H](N)CC[C@H](N)C(=O)O)[C@@H](O)[C@H]1O; target or system = Genome polyprotein, NS5 methyltransferase domain (Zika virus, UniProt Q32ZE1); test = NS5 enzyme activity, inhibitor; conditions = 0.7812 µM; quantity = inhibition; result = 14.8%
SMILES = Cc1cccc(COc2cccc(C(=O)Nc3ccc4c(c3)B(O)OC4)c2)c1; target or system = Genome polyprotein, NS2B-NS3 protease (dengue virus type 2, UniProt P29990); test = enzyme activity, FRET; system = dengue virus serotype 2; conditions = 50 µM, together with: substrate 50 µM; quantity = inhibition; result = 19 ± 9%
SMILES = COc1cc(Nc2ncc(F)c(Nc3ccc4c(n3)NC(=O)C(C)(C)O4)n2)cc(OC)c1OC; target or system = Cyclin-dependent kinase 9 (CDK9, Homo sapiens, UniProt P50750); test = KINOMEscan; conditions = 10 µM; quantity = inhibition; result = 0%
SMILES = O=C(Nc1ccccc1)Nc1ccc2c(c1)B(O)OC2; target or system = Genome polyprotein, NS2B-NS3 protease (dengue virus type 2, UniProt P29990); test = enzyme activity, FRET; system = dengue virus serotype 2; conditions = 50 µM, together with: substrate 50 µM; quantity = inhibition; result = ≤ 10%
SMILES = COc1ccc(C(CN(C)C)C2(O)CCCCC2)cc1 (stereo not drawn); target or system = human coronavirus OC43; test = virus-induced cell killing; system = MRC-5; conditions = screen; quantity = maximum inhibition; result = 20.6%
SMILES = CC(C(=O)Nc1ccc2c(c1)B(O)OC2)c1cccc(Oc2ccccc2)c1 (stereo not drawn); target or system = Genome polyprotein, NS2B-NS3 protease (dengue virus type 2, UniProt P29990); test = enzyme activity, FRET; system = dengue virus serotype 2; conditions = 50 µM, together with: substrate 50 µM; quantity = inhibition; result = ≤ 10%
SMILES = Nc1ncn([C@@H]2O[C@H](CO)[C@@H](O)[C@H]2O)c(=O)n1; target or system = human coronavirus OC43; test = virus-induced cell killing; system = MRC-5; conditions = maximum over 10 doses; quantity = maximum inhibition; result = 0%
SMILES = O=c1[nH]c2sc3c(c2c(=O)n1O)CCC3; target or system = Tripartite terminase subunit 3 C-terminal nuclease domain; test = endonuclease activity, ELISA; conditions = 20 µM, together with: dsDNA; quantity = inhibition; result = 90%
SMILES = Nc1c2c(nc3c1C(c1ccc(Cl)c(Cl)c1)c1ccc(OCC(=O)c4ccc(Cl)cc4)cc1O3)CCCC2 (stereo not drawn); target or system = APP; test = Aβ42 self-aggregation, inhibitor, thioflavin T fluorescence; conditions = 100 µM; quantity = inhibition; result = 87%
SMILES = CC(=O)N[C@H]1[C@H]([C@H](O)[C@H](O)CO)OC(C(=O)O)=C[C@@H]1N=[N+]=[N-]; target or system = nanA; conditions = 8 µM, pH 6; quantity = inhibition; result = 3 ± 1.3%
SMILES = O=C(Nc1cccnn1)N1CCC(=Cc2cccc(Oc3ccc(C(F)(F)F)cn3)c2)CC1; target or system = ADORA1; test = binding; conditions = 10 µM, together with: [3H]DPCPX; quantity = inhibition; result = 19%
SMILES = C[C@@H]1N=C(c2ccccc2F)c2cc(Br)ccc2-n2cnc(C(=O)O)c21; target or system = peripheral benzodiazepine receptor; test = binding; conditions = 10 µM; quantity = inhibition; result = 23.3 ± 8.5%
SMILES = Cc1ncc(C)n2nc(/C=C/c3nc(N4CCCC4)cc(N4CCOCC4)n3)nc12; target or system = Cacna1b; test = binding; conditions = 10 µM; quantity = inhibition; result = -22%
SMILES = Nc1c2c(nc3c1C(c1ccc(Cl)c(Cl)c1)c1ccc(OCC(=O)c4ccccc4)cc1O3)CCCC2 (stereo not drawn); target or system = APP; test = Aβ42 self-aggregation, inhibitor, thioflavin T fluorescence; conditions = 100 µM; quantity = inhibition; result = 86%
SMILES = C[C@@H]1CC[C@@]2(OC1)O[C@H]1[C@@H](O)[C@H]3[C@@H]4CC[C@H]5C[C@@H](O[C@@H]6O[C@H](CO)[C@H](O[C@@H]7O[C@H](CO)[C@@H](O)[C@H](O[C@@H]8OC[C@@H](O)[C@H](O)[C@H]8O)[C@H]7O[C@@H]7O[C@H](CO)[C@H](O)[C@H](O[C@@H]8O[C@H](CO)[C@@H](O)[C@H](O)[C@H]8O)[C@H]7O)[C@H](O)[C@H]6O)[C@H](O)C[C@]5(C)[C@H]4CC[C@]3(C)[C@H]1[C@@H]2C; target or system = Arylacetamide deacetylase (Homo sapiens, UniProt P22760); test = probe substrate; conditions = concentration not given; quantity = inhibition; result = 70.3%
SMILES = O=c1[nH]c2ccsc2c(=O)n1O; target or system = Tripartite terminase subunit 3 C-terminal nuclease domain; test = endonuclease activity, ELISA; conditions = 20 µM, together with: dsDNA; quantity = inhibition; result = 89%
SMILES = COc1cccc(C(=O)Nc2ccc3c(c2)B(O)OC3)c1; target or system = Genome polyprotein, NS2B-NS3 protease (West Nile virus, UniProt P06935); test = enzyme activity, FRET; conditions = 50 µM, together with: substrate 50 µM; quantity = inhibition; result = ≤ 10%
SMILES = C[S+](C)[O-]; target or system = Acetylcholinesterase (ache, Electrophorus electricus, UniProt O42275); test = enzyme activity, inhibitor, Ellman; conditions = concentration not given; quantity = inhibition; result = ≥ 21%
SMILES = C[C@H](C(=O)N[C@H]1COc2ccccc2[C@@H]1S(C)(=O)=O)c1ccc(F)cc1; target or system = protein kinase C, rat; test = enzyme activity; conditions = 10 µM, Eurofins selectivity panel; quantity = inhibition; result = 26%
SMILES = O=C(NCc1ccc(B(O)O)cc1)c1cccc(OCc2ccccc2)c1; target or system = Genome polyprotein, NS2B-NS3 protease (West Nile virus, UniProt P06935); test = enzyme activity, FRET; conditions = 50 µM, together with: substrate 50 µM; quantity = inhibition; result = ≤ 10%
SMILES = COc1ccc(N2C(=O)N(c3c(C)cccc3Cl)Cc3cnc(Nc4ccc(C5CCN(C)CC5)cc4OC)nc32)nc1; target or system = Serine/threonine-protein kinase B-raf (BRAF, Homo sapiens, UniProt P15056); test = kinase activity; conditions = 0.5 µM; quantity = inhibition; result = 16%

For quick reference, copied from above:
SMILES = Cc1ccc(S(=O)(=O)n2c(N)nc3ccccc32)cc1; target or system = Muscarinic acetylcholine receptor M5 (CHRM5, Homo sapiens, UniProt P08912); conditions = 10 µM; quantity = inhibition; result = 54.6%
SMILES = O=C(Nc1ccc2c(c1)B(O)OC2)c1ccc(OCc2ccccc2)cc1; target or system = Genome polyprotein, NS2B-NS3 protease (West Nile virus, UniProt P06935); test = enzyme activity, FRET; conditions = 50 µM, together with: substrate 50 µM; quantity = inhibition; result = 12 ± 5%
SMILES = O=c1[nH]c2sc(-c3ccc(Cl)cc3)cc2c(=O)n1O; target or system = Tripartite terminase subunit 3 C-terminal nuclease domain; test = endonuclease activity, ELISA; conditions = 20 µM, together with: dsDNA; quantity = inhibition; result = 97%
